# Assay results pooled from the literature.
# Compare with care: the assays were run in different laboratories. ± gives the spread as reported.
# Sequence of UniProt P25103 (whole entry, looked up): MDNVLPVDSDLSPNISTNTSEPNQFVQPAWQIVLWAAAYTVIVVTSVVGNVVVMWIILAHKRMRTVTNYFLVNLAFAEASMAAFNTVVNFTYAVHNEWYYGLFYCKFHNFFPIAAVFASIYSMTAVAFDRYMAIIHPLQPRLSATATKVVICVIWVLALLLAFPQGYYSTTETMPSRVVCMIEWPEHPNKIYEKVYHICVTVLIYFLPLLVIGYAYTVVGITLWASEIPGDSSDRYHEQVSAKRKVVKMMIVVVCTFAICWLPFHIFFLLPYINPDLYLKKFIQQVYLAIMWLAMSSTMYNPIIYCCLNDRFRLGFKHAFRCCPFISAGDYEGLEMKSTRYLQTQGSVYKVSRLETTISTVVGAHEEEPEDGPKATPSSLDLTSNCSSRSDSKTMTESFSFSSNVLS
# Sequence of UniProt P49761 (whole entry, looked up): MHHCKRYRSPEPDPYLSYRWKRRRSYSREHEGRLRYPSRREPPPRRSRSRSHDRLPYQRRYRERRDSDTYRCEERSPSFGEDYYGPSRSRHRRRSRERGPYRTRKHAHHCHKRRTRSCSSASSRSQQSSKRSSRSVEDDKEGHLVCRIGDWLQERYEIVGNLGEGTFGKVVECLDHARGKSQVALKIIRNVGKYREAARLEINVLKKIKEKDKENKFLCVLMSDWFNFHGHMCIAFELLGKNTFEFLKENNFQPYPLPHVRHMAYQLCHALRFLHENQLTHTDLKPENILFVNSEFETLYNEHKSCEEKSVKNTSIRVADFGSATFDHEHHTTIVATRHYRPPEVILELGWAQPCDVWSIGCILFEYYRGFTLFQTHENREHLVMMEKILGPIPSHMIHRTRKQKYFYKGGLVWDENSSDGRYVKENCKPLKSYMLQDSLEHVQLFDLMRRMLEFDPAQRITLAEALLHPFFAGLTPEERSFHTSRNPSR
Structure (SMILES),tested on,assay,test system,setting,how to read,endpoint,value
CN1CC[C@]23c4c5ccc(O)c4O[C@H]2[C@H](O)CC[C@@]3(O)[C@H]1C5,,,,1 h,,logP,1.1
COc1ccccc1-c1n[nH]c2nc(NC3CCN(C(=O)Cc4ccc(F)cc4F)CC3)ncc12,,"bead binding, competition bead pull-down, measured: LINJ.36.2130",Leishmania donovani axenic amastigote extract,10 µM,relative to: vehicle,relative abundance,1.06
[2H]c1nc([2H])c(-c2nc([2H])n3c2C([2H])([2H])N=C(c2ccccn2)c2cc(C#C)ccc2-3)o1,,,"Sprague Dawley rat, brain","oral, 2 mg/kg, 0 to 24 h, cassette dosing",,AUC(0-t),414 ng·h/mL
NC[C@]1(CC(=O)O)CC[C@H]([18F])CC1,,PET,"rhesus monkey, brain","intravenous, 3.8 min, baseline scan",,initial peak SUV,0.55
C[C@]12CC[C@H]3[C@@H](CCC4=CC(=O)CC[C@@]43C)[C@@H]1CC[C@@H]2O,,,human liver microsomes,1 nM,,hepatic intrinsic clearance,64.4 mL/min/kg
COc1ccc2c3c1O[C@H]1[C@H](O)CC[C@H]4[C@@H](C2)N(C)CC[C@@]341,,,,1 h,,logP,1.36
O=C1NC2(CC2)COc2ncc(F)cc2[C@H]2COCCN2c2ccn3ncc1c3n2,,,"Sprague-Dawley rat, female, liver","oral, 5 mg/kg/day, 4 weeks, end of treatment",,organ-to-brain weight ratio,650 ± 79.5%
CC[C@H](C)[C@H](NC(=O)[C@H](CC(=O)O)NC(=O)[C@@H](NC(=O)[C@@H]1CCCN1C(=O)[C@@H](N)CCCNC(=N)N)[C@@H](C)O)C(=O)N[C@@H](CCCCN)C(=O)N[C@H]1CSSC[C@@H]2NC(=O)[C@H](CCCNC(=N)N)NC(=O)CNC(=O)[C@H](CC(N)=O)NC(=O)[C@H]([C@@H](C)O)NC(=O)[C@H](CCCCN)NC(=O)CNC(=O)[C@H](Cc3ccccc3)NC(=O)[C@H](CCCNC(=N)N)NC(=O)[C@H](CO)NC(=O)[C@H](CCCCNC(=O)OCc3cc(OC)c(OC)cc3[N+](=O)[O-])NC(=O)[C@@H]3CSSC[C@@H](C(=O)N[C@@H](Cc4ccccc4)C(=O)O)NC(=O)[C@H](CC(=O)O)NC(=O)[C@H](CSSC[C@H](NC(=O)[C@H](CCC(N)=O)NC(=O)[C@H](Cc4ccc(O)cc4)NC(=O)[C@H](CO)NC(=O)[C@H](CCC(=O)O)NC(=O)[C@H](CO)NC1=O)C(=O)N[C@@H](Cc1ccccc1)C(=O)N1CCC[C@H]1C(=O)N[C@@H](C(C)C)C(=O)N3)NC(=O)[C@H](Cc1ccccc1)NC(=O)CNC(=O)[C@H](CC(N)=O)NC(=O)[C@H](C(C)C)NC2=O,,,"rat, anaesthetised","intravenous, 350 µg/kg, no illumination",,RR interval change,6.6 ± 1.5 ms
CS(C)(=O)=Nc1ccc(-c2ccc(-c3nc4cc(O[C@@H]5CO[C@H]6[C@@H]5OC[C@H]6O)[nH]c4cc3F)cc2)cc1,"Substance-P receptor (TACR1, Homo sapiens, UniProt P25103)","calcium signal, antagonist",,10 µM,,inhibition,13%
CN(C)[C@H]1C[C@@]23CC[C@@]4(O2)C(=CC[C@]2(C)[C@@H](c5ccc6ccncc6c5)CC[C@H]24)C=C3[C@@H](O)[C@@H]1O,"Dual specificity protein kinase CLK3 (CLK3, Homo sapiens, UniProt P49761)","ATP probe labelling, inhibitor, KiNativ profiling",,1 µM,,inhibition,13.1%
CSCC[C@H](NC(=O)[C@H](CCC(=O)O)NC(=O)[C@H](Cc1ccc(O)cc1)NC(=O)[C@@H](NC(=O)[C@H](CC(C)C)NC(=O)[C@H](CC(=O)O)NC(=O)[C@H](CC(C)C)NC(C)=O)[C@@H](C)O)C(=O)N[C@@H](CC(C)C)C(=O)N[C@@H](CO)C(=O)N[C@@H](CC(C)C)C(=O)N[C@@H](CCC(N)=O)C(=O)N[C@@]1(C)CCCC=CCCC[C@@](C)(C(=O)N[C@@H](CC(C)C)C(=O)N[C@@H](CC(N)=O)C(=O)N[C@@H](CCC(=O)O)C(=O)N[C@@H](CO)C(=O)N[C@@H](Cc2ccc(O)cc2)C(N)=O)NC(=O)[C@H](CCCCN)NC(=O)[C@H](C(C)C)NC(=O)[C@H](C(C)C)NC1=O,,,,"concentration not given, 24 (unit not given)",,solubility,460 ± 80 µg/mL
COc1ccc(-n2cc(C(=O)N3C[C@]4(OC(=O)c5ccccc5NC(C)=O)CC[C@H](OC)[C@@]56[C@@H]4C[C@@H]([C@@H]35)[C@@]3(O)C[C@H](OC)[C@H]4C[C@@H]6[C@]3(O)[C@H]4OC)nn2)cc1,,,"rat Sprague-Dawley, plasma","intravenous, 2 mg/kg",,C0,214 ng/mL
COc1cc2c(cc1NC(=O)c1cncn1C)C[C@H]1[C@H]3CCCC[C@@]23CCN1C,,,C57BL/6 mouse,"ip, 50 µg/g, 30 min",relative to: control-injected,hanging wire hold time,no effect
